Earlier results that unrelated publications cite.
Numbered parts are unrelated; values within a part may stem from several laboratories.

Set 1
Organism: Escherichia coli
Form: peptide
Strain: DH5α
Measurement: MIC
AMTLRKRKFAWYVLSSSLKWLIKKAKKIGVQVCGFE: 3 µM
SVIWRKLFFIFIKRSGNWIKKVEKRQNLL: 1 µM
KQKTLKKVWKLSEKVLIFASAFAKKAGAAEATLVL: 2 µM

Further values, each from its own experiment
B1: CCL1; sequence looked up; chain KSMQVPFSRCCFSFAEQEIPLRAILCYRNTSSICSNEGLIFKLKRGKEACALDTVGWVQRHRKMLRHCPSKRK
pegcetacoplan  AUC(0-last) (human; 30 mg/day for 28 days, approximate): ~55900 µg·h/mL
B1 (CCL1)  EC50 (CCR8 F123A mutant; IP accumulation, agonist): 4.4 nM
LLLLDFR  retention coefficient S (isocratic RP-HPLC, C18 column; peptide, water/acetonitrile, 0.1% TFA; 25 °C): 14.7

A few entries again (further values, each from its own experiment):
B1 (CCL1)  EC50 (CCR8 F123A mutant; IP accumulation, agonist): 4.4 nM
